Measured values collected from several papers.
Target: Transcriptional activator protein LasR (lasR, Pseudomonas aeruginosa, UniProt P25084)
Observed: reporter gene
Sequence (P25084 1-239, as in one of the studies): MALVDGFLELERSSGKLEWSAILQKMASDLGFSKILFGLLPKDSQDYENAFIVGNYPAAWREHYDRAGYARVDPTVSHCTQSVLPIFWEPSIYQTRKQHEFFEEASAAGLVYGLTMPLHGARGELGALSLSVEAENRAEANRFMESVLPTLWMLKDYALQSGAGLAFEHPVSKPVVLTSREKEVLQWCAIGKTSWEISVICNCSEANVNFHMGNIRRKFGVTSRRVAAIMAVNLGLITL

SMILES = CCCCCCCCCCCNC(=O)CC(=O)c1ccccc1; assay = antagonist; test system = Pseudomonas aeruginosa PAO-JP2 GFP reporter; conditions = together with: 150 nM OdDHL; endpoint = maximum inhibition; value = 92%
SMILES = O=C(CC(=O)N[C@H]1CCOC1=O)Cc1ccccc1; assay = antagonist; conditions = 10 µM, together with: 1 10 nM; endpoint = inhibition; value = 20%
SMILES = CCCCCCCCCC(=O)NC1CCCC1; assay = antagonist; test system = PAO-JP2 plasI-LVAgfp; conditions = 200 µM, together with: OdDHL 150 nM; endpoint = inhibition; value = ~50%
SMILES = O=C(Cn1cc(-c2cc(F)cc(F)c2)nn1)N[C@H]1CCOC1=O; assay = antagonist; conditions = 100 µM, together with: OdDHL 10 nM; endpoint = inhibition; value = 71%
SMILES = O=C(CCc1ccc(C(F)(F)F)cc1)N[C@H]1CCOC1=O; assay = agonist; test system = Escherichia coli, JLD271 pJN105L pSC11; endpoint = Emax; value = 105%
SMILES = CCCc1cn(-c2cccc(C(=O)N[C@H]3CCOC3=O)c2)nn1; assay = agonist; test system = Escherichia coli, DH5α pJN105L/pSC11; conditions = 100 µM; how to read = baseline: OdDHL at same concentration; endpoint = activation; value = 1%
SMILES = O=C(N[C@H]1CCOC1=O)C1CCCC1; assay = agonist; test system = Escherichia coli JLD271/pJN105L/pSC11; conditions = 100 µM; how to read = baseline: OdDHL 100 µM; endpoint = activation; value = -4%
SMILES = O=C(N[C@H]1CCOC1=O)c1ccc(-n2cc(-c3ccccc3)nn2)cc1; assay = antagonist; conditions = 100 µM, together with: OdDHL 10 nM; endpoint = inhibition; value = 38%
SMILES = O=C(Cc1c(F)c(F)c(F)c(F)c1F)N[C@H]1CCOC1=O; assay = antagonist; test system = Escherichia coli JLD271 pJN105L pSC11; conditions = 100 µM, together with: 2 nM OdDHL; how to read = baseline: untreated, negative means agonism; endpoint = inhibition; value = 76%
SMILES = CCCCCCCCCCNC(=O)CC(=O)c1ccccc1; assay = antagonist; test system = Pseudomonas aeruginosa PAO-JP2 GFP reporter; conditions = together with: 150 nM OdDHL; endpoint = maximum inhibition; value = 93%

Some of these lines once more:
SMILES = CCCc1cn(-c2cccc(C(=O)N[C@H]3CCOC3=O)c2)nn1; assay = agonist; test system = Escherichia coli, DH5α pJN105L/pSC11; conditions = 100 µM; how to read = baseline: OdDHL at same concentration; endpoint = activation; value = 1%
